Measurements collected from several papers.
Numbered parts are unrelated; each lists some results of a single study. Substitutions count along the parent as printed.

Set 1
Target: Fragile X messenger ribonucleoprotein 1, C-terminal low-complexity region (Fmr1, Mus musculus, UniProt P35922)
Technique: RNA Bind-n-Seq
Form: RNA
Matrix: in vitro
Concentration: 200 nM
Setting: whole 134-nt RNA, ends assumed
Together with: 150 mM KCl
Baseline: input library
Direction: higher = stronger binding
The log2 enrichment of `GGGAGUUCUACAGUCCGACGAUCACCAUGCAGGUGGGCUUCUUUGGGAAGUGGGGCAAGGGGGGGAUAGGGAGGGGGGUAACACUUUGGGAACAGGUGGUCCCAGGUCGUUUCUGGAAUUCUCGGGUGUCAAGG` is reported as 1.05.
With `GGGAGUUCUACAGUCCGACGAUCCACAGACAACACGCACCCACACAGACACAGAGGGAAGGGGUUGGGAUGGGGACAGGGUGAAAAGCAGGGCGGGGUAGGACCCCAGCCCCUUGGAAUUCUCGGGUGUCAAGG` the log2 enrichment was 1.06.
The log2 enrichment of `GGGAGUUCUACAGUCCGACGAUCUAACUUUAGAGGAGGAUUUGAUGGAUAUGGCAGUGGACGUGGAUUUGGGGAUGGCUAUAAUGGGUAUGGAGGAGGACCUGGAGGUGGCAAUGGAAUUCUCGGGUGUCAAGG` is reported as 0.254.
For `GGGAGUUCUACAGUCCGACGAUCUAUCUUAUCUACACAUGGGGGACUGAAGAGUUCGAGAGAUCCAAGAGGAAGAAUCCAGCUGCCUAUGAAAAUGACAAAUGAGCAACGCAUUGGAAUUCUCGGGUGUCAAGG`, the log2 enrichment was -0.625.
For `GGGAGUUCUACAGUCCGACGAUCCAAGUCCUGUGCUACACAUCGUAUGUACCGAAUCGGGGAAAGGGGAAAGGAAAGGAAAGUAUUAUGUUACGCCGUUCGGAUCUGCACUUCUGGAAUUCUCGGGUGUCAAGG`, the log2 enrichment was -0.25.
The log2 enrichment of `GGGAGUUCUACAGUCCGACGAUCGCAGGAAGUAAAAACAAAUGGAAAUGCUGCGGAUAGUGGCAGGGGUGGGGGUUGCUAAGGAAAGGGUGGGAUGGGAGUGGGUAAAGAGUUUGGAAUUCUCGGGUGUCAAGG` is reported as 0.28.
`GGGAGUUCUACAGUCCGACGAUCGUCCUGUGCUACACAUCGUAUGUACCGAAUCGGGGAAAAGGGGAAAAGGGGAAAAGGGAAAGUAUUAUGUUACGCCGUUCGGAUCUGCACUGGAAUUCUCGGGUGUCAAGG` gave a log2 enrichment of 0.251.
`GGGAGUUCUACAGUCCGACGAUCGCAGGAAGUAAAAACAAAUGGAAAUGCUUCGGAUAGUGGCAGGGGUGGGGGUUGCUAAGGAAAGGGUGGGACGGGAGUGGGUAAAGAGUUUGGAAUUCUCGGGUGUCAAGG` gave a log2 enrichment of -0.00282.

Set 2
Target: Hepatocyte nuclear factor 3-alpha (Foxa1, Mus musculus, UniProt P35582, residues 1-468, full length assumed)
Technique: EMSA with sequencing
Form: double-stranded DNA, one strand shown
Matrix: in vitro
Concentration: 10 and 20 nM
Setting: whole designed probe, mean of two concentrations, ends assumed
Baseline: negative control set to 0
Direction: higher = stronger binding
Target sequence (chain): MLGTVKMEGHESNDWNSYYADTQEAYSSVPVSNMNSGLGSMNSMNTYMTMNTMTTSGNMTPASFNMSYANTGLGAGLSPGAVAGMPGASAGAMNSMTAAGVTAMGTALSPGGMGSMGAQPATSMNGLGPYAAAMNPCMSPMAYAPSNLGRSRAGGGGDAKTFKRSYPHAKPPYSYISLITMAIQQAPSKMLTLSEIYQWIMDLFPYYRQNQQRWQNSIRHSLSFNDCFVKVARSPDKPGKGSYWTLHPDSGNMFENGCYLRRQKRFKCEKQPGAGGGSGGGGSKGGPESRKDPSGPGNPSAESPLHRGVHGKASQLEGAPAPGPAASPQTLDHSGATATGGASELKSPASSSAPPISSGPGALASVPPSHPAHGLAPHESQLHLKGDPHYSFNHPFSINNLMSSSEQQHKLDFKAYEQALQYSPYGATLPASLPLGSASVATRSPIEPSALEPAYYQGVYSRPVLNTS
Under “normalised bound fraction”, `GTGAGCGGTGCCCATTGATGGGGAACCACCTGGTTCAAACCTTGGCTTACCTCCACTCTTAGAATCAGCCGAGCTAATTAAAAGCACAGTGAAAGACACAAAGGCACCAAGACAGCTGAGCAAACATTAACAAATGCGTAAGTAAATAAAGTACTTGTATTATGTGTAAGCAATGGTGCAGATGAAACTTGGGTGGCACTAGGAAGGGTGAGTCAGAGGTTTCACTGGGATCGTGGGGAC` is recorded as 0.522 ratio.
`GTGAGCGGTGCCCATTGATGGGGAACCTGGAGAAATACAGTACGAAACCCAGCAGGCTTCTGCAAACAACACATCCCTTTAAGTTAATTGGTGTTATATAGAAGCTGAAATGCTCCGCTTATTTACAAAGCTACAGATTTATGTAAAGCAAAACCAATTACACTTAATGCCTAAACTATTCCAGGTGCTCAATGATAATGTTGCTAGGCAGTAGAGAAGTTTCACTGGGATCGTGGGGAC` — result for “normalised bound fraction”: 0.264 ratio.
`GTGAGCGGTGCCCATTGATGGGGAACTGTATAAAGCAATTTATTTTGGAAGAGTAGGCTGCTCTTGAATTGTTTTAAGTAATGGTGATATTTTAGGAAATAAGTGGCAAAGTCACAAAGTAAACAGGTCCACAGTACAACCTTGTCATTTCAATACAGTAACCTTATCTAGATATCGTATTCCACTAGTATTGCCAAATACGATATTTGAGGAATATCATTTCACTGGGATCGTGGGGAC` — result for “normalised bound fraction”: 0.291 ratio.
`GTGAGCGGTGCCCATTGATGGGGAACTTTCTTTCCACCTCCTTACTCTGAGACAGAGATCCAGTTTATATGTACATTCTATCTTATAAATCAACACTGACAGTTGTATAATTTTAAATGTAAACAAGGACAAAAAAGAATAGAAAATAAGCACATTTTAGGACACAGAATAATCAAAGCCAACATATTATAATATTTAGTTTATTGCAATATTGTGGAGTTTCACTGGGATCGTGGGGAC` — result for “normalised bound fraction”: 0.344 ratio.
Under “normalised bound fraction”, `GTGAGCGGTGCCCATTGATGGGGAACTCTTTCCCCTTCTATGACTTGCAAATTTATATTTCTCTTAACAACCATAAAAACAACTACAGTTGCTGAAGAAATAAACACTCAGAAAGCAAATGTTTACTTTTAAATATGAGCAACTTTACATCTAATGCCAATGCCTGATAAAGAGAAATTTATAGTAAACAAAAAATATGGCCAAAATCACTTATTTAGCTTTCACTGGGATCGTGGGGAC` is recorded as 0.391 ratio.
`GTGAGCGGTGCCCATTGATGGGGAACCACCGCGCTCGCACGGCTTTGTCCGTGCTACAAAGCAGCCTGTTAAACTATTGGAACTAATGCGCCGCAGCTGCGCGAGTGACTTCTGCTGCTTATGTACATAAAAAGTCCTGGGGCGACGGCTTAACCATCAGATGCCTGCTGCTGGGTTGTTTGGCTAGTCTTTCCATTTGCTTATTCCTGAATCCAAAGGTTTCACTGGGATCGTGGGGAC` — result for “normalised bound fraction”: 0.336 ratio.
For `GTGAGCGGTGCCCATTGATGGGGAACATCTTCCCCCTCTTCCTTGCCCCACCAGCTCACCTACGGGGGTTATTTGCACAAAGGAAAATAAATAAAGCCGGCATTCGTTAACCCTCTTCACGCGCATACTGCTGTTTGCTCTGCATGAATCATGGTCCTTACGCGACGCCAGGCTCCGGGAGAGCAAAGCACCGTGTCAGGCGCATGATCCGGGGTGGCCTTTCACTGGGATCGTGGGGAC`, “normalised bound fraction” read 0.387 ratio.
`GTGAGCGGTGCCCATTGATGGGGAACTATATATATATATACTGCCTCAATGTTTTTTAACATGAAATTATTTAGATTATCTAAGACAAGCTGGCTAGGAGTTGTTTTGATTAGAATCAAAGTAAACATAAAACATATTGGCTCTATTTGCTTAGTGGGCGCAATTAAATTTATGATGTATATAACACCATCAGCTTATTTTGAAAGTAAAGTTCTCACTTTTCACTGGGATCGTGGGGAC` — result for “normalised bound fraction”: 0.513 ratio.

Other studies, line by line
P1: viral docking peptide; YKVKRRLVFGADD; partner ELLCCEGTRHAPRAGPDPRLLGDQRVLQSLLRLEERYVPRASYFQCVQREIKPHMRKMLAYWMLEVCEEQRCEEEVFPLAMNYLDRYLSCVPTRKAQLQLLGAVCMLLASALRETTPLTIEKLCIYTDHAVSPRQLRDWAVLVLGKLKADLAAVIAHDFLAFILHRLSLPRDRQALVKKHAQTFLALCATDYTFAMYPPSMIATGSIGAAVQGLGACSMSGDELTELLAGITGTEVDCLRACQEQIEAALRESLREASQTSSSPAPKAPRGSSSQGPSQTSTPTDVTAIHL
Under “normalised enrichment score”, `P1 G10C` is recorded as 0.188 (CCND3, cyclin fold, Cln2 fusion (human); yeast growth competition, sequencing; yeast; weak parent motif; baseline: not given, higher = stronger binding).
`PNN (Homo sapiens, UniProt Q9H307)` — result for cross-linked residues: “K157 to K1073” (ACIN1 (Homo sapiens, UniProt Q9UKV3); cross-linking MS; cells; together with: BSPNO).

Some of these lines once more (other studies, line by line):
Under “normalised enrichment score”, `P1 G10C` is recorded as 0.188 (CCND3, cyclin fold, Cln2 fusion (human); yeast growth competition, sequencing; yeast; weak parent motif; baseline: not given, higher = stronger binding).
`PNN (Homo sapiens, UniProt Q9H307)` — result for cross-linked residues: “K157 to K1073” (ACIN1 (Homo sapiens, UniProt Q9UKV3); cross-linking MS; cells; together with: BSPNO).
